Experimental data pooled from the literature.
Lines come from different studies, so protocols differ. Numbers after ± are the reported error.

Compound = O=C(COc1ccc(Cl)cc1)NC12CC(c3nnc([C@H]4C[C@@H](OC(F)(F)F)C4)o3)(C1)C2; test system = healthy human volunteers fasted, plasma; conditions = oral, 800 mg single dose, geometric mean; endpoint = AUC; value = 685 µM·h
Compound = COc1ccc2[nH]c([S@+]([O-])Cc3ncc(C)c(OC)c3C)nc2c1; test system = human, dried blood spots; conditions = 10 mg omeprazole, median, added: fluvoxamine; scale = relative to: with fluvoxamine over alone; endpoint = AUC ratio; value = 4.3
Compound = CC(C)(C(=O)N1CCOc2c(C#N)cncc2C1)C(F)F; test system = healthy humans, both sexes, plasma; conditions = oral, 30 mg single dose, 3-fold dose increase; scale = relative to: 30 mg over 10 mg; endpoint = AUC dose proportionality ratio; value = 2.09
Compound = COc1ccc2nc([S@@+]([O-])Cc3ncc(CO)c(OC)c3C)[nH]c2c1; test system = human, dried plasma spots; conditions = dose not given, added: rifampicin pretreatment; scale = relative to: control over induction; endpoint = AUC fold decrease; value = 2.6 fold
Compound = Nc1ccn([C@@H]2O[C@H](CO)[C@@H](O)C2(F)F)c(=O)n1; test system = human patients, plasma; conditions = intravenous, 800 mg/m2, median, before paricalcitol; endpoint = AUC extrapolated; value = 0.21%
Compound = N#Cc1cc(NC(=O)[C@H]2c3ccccc3C(=O)N(CC(F)(F)F)[C@@H]2c2cccnc2)ccc1F; test system = human, plasma; conditions = oral, 900 mg, median; endpoint = AUC; value = 17100 ng·h/mL
Compound = C=CC(=O)Nc1cc(Nc2nccc(-c3cn(C)c4ccccc34)n2)c(OC)cc1N(C)CCN(C)C; test system = human patients; conditions = oral, 80 mg, cycle 3 day 1, monotherapy, geometric mean; endpoint = AUC at steady state; value = 11.8 µM·h
Compound = C=CC(=O)N1CCC[C@@H](n2c(=O)n(-c3ccc(Oc4ccccc4)cc3)c3c(N)nccc32)C1; test system = human; conditions = oral, 60 mg; scale = relative to: fed over fasted; endpoint = AUC fed/fasted ratio; value = 2.23
Compound = N#Cc1ccc(C(c2ccc(C#N)cc2)n2cncn2)cc1; test system = human patients, plasma; conditions = oral, 5 mg daily; endpoint = AUC at steady state per dose; value = 2.45 ± 0.27 µg·h/mL/mg

Excerpt of the above:
Compound = N#Cc1ccc(C(c2ccc(C#N)cc2)n2cncn2)cc1; test system = human patients, plasma; conditions = oral, 5 mg daily; endpoint = AUC at steady state per dose; value = 2.45 ± 0.27 µg·h/mL/mg
